# Experimental data gathered from unrelated publications.
# Every numbered part comes from another study and shows a few of its results, in no order.

# Series 1 — technique: protein-binding microarray; molecule type: double-stranded DNA, one strand shown; sample: in vitro; tested at: 2540 nM top; setting: 60-bp whole probe; with: salmon DNA 0.4 mg/ml; baseline: random background probes; direction: higher = stronger binding; shared flanks, not repeated: GCCTAGCAC … GTCTTGATTCGCTTGACGCTGCTG
# Target: Interferon regulatory factor 3, full length, phosphomimetic (IRF3, Homo sapiens, UniProt Q14653, residues 1-427, S386D/S396D/S398D/S402D/T404D/S405D)
# Target sequence (chain): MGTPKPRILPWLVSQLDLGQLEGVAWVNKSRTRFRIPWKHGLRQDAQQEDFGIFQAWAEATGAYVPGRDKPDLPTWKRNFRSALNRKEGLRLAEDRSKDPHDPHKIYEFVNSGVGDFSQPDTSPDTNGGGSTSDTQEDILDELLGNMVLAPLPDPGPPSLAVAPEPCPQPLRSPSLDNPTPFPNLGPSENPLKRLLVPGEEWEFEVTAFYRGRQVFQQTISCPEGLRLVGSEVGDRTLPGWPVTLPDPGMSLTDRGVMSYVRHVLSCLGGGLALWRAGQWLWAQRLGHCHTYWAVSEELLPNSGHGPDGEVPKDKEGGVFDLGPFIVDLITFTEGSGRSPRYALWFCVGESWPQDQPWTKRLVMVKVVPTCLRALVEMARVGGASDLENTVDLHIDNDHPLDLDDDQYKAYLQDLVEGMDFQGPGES
Oligonucleotide,fitted relative affinity [z-score]
GACGGTTTCCTACTGGTGACGTGCTAG,5.15
TTAGGACTGGGTCTCGGTGAGTGCTAG,-0.945
TCAATTTGGCATATCTAACTGTGCTAG,0.472
TTAGGTATCGGACTGGGTAAGTGCTAG,1.21
GATGGTTTCCTTATCCTGACGTGCTAG,7.95
TTAGGACTCGACTATCGGTTAGTGCTA,-0.24
AGGCATGTGGGTTCCATCATGTGCTAG,-0.508
TCACTTTCCAATTGTCCTACTGTGCTA,6.43
TTAGATATCGGGCATCGATTAGTGCTA,-0.425
GACGATTTCCTTCTCCTGACGTGCTAG,6.01
TTAGATCTCAGATTCGATTAGTGCTAG,1.41
TTAGATTTCGGGTATCGATTAGTGCTA,1.6
TCACAGTTGAGTTCTGTTACTGTGCTA,0.0647
TTACATATGTTTTTCATTTTGTGCTAG,1.23
CCCCAACTCGCCTTTTTTGTTGTGCTA,1.5
TTAGATATCAGTATCGACTAGTGCTAG,1.11
GACGGTCTCCTTATCCTGAGGTGCTAG,2.91
TTAGGTAGCCTTTTCCTTTAGTGCTAG,3.46
TTAGATTTCTGTATCGATTAGTGCTAG,2.34

# Series 2 — technique: RNA Bind-n-Seq; molecule type: RNA; sample: in vitro; tested at: 200 nM; setting: whole 134-nt RNA, ends assumed; with: 150 mM KCl; baseline: input library; direction: higher = stronger binding
# Target: Ras GTPase-activating protein-binding protein 1, full length (G3BP1, Homo sapiens, UniProt Q13283)
# Chain of UniProt Q13283 (whole entry, looked up): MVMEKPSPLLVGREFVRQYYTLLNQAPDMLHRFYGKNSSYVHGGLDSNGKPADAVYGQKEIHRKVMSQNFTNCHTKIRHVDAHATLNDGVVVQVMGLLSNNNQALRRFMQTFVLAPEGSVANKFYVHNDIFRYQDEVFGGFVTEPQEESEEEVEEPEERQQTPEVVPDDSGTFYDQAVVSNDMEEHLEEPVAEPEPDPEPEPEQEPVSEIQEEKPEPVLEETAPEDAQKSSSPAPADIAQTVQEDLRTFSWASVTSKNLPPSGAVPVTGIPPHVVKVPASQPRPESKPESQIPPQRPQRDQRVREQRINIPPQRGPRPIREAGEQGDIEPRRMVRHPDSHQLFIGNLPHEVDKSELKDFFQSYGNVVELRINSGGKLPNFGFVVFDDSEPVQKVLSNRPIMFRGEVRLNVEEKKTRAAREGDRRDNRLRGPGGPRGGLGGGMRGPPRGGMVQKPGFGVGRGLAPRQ
# Shared flanks, not repeated: GGGAGUUCUACAGUCCGACGAUC … UGGAAUUCUCGGGUGUCAAGG
Oligonucleotide,log2 enrichment
CCUCAAGUCCUGUGCUACACAUCGUAUGUACCGAAUCGGAAAGGUGGAAAGGAAAGUAUUAUGUUACGCCGUUCGGAUCUGCACUUCCAG,-0.321
ACCAUGCAGGUGGGCAUCUUUGGGAAGUGGGGCAAGGGGGGGAUAGGGAGGGGGGUAACACUUUGGGAACAGGUGGUCCUAGGUCGUUUC,1.42
UCAAGUCCUGUGCUACACAUCGUAUGUACCGAAUCGGCCCGGGGCCCGGCCCGGGAAAGUAUUAUGUUACGCCGUUCGGAUCUGCACUUC,-0.845
CUUUGUAAUGGGAACUGCCUCUUUCCUGUUGUUGUUAAUGAAAAUGUCAGAAACCAGUUAUGUGAAUGAUCUCUCUGAAUCCUAAGGGCU,-0.162
GUCCUGUGCUACACAUCGUAUGUACCGAAUCGGGGUGGGGUUUUUGGGGAAAAAGGGGAAAGUAUUAUGUUACGCCGUUCGGAUCUGCAC,0.266
UAAGAAGGAAAUUGAGAGGAGAAAAACUGGAAAAGAAAUGUUGGAUUAUAAAAGAAAACAAGAAGAAGAAUUAACAAAAAGAAUGCUGGA,-0.792
CACAGACAACACGCACCCACACAGACACAGAGGGAAGGAAAUGGGAUGGGGACAGGGUGCACAGCAGGGCGGGGUAGGACCCCAGCCCCU,1.66
UGGCCCUGGUGGCAUGCGGGGAGGAAGAGGUGGCCUCAUGGAUCGUGAUGGUCCCGGUGGAAUGUUCAGAGGUGGCCGUGGUGGAGACAG,0.0537
UCUCAGCACCCUCGUGAAACUGGACAAGAAGCCAGUGGAGACCAACGGUCCUGAUGCCAAUCACGAGUACAGUACAAGCAGCCAGCAUAU,-0.586
UCAAGUCCUGUGCUACACAUCGUAUGUACCGAAUCGGGGUUGGGUUGGUUGGGGAAAGUAUUAUGUUACGCCGUUCGGAUCUGCACUUCC,0.799
CACAGACAACACGCACCCACACAGACACAGAGGGAAGGGGUUGAAAUGGGGACAGGGUGCACAGCAGGGCGGGGUAGGACCCCAGCCCCU,1.25
UGUGGACGACAAUGAGGAGACCAUCAAAAAGCGGCUGGAGACCUAUUACAAGGCCACAGAACCUGUCAUCGCCUUCUAUGAGAAACGUGG,-0.753
AAGUCCUGUGCUACACAUCGUAUGUACCGAAUCAAAUUUUUAAAUUUAAACCCAAAAAAGUAUUAUGUUACGCCGUUCGGAUCUGCACUU,-0.468
UAACUUUAGAGGAGGAUCUGAUGGAUAUGGCAGUGGACGUGGAUUUGGGGAUGGCUAUAAUGGGUAUGGAGGAGGAACUGGAGGUGGCAA,0.43

# Series 3 — technique: RNA Bind-n-Seq; molecule type: RNA; sample: in vitro; tested at: not given; baseline: input RNA pool; direction: higher = stronger binding
# Target: RING finger protein unkempt homolog, zinc fingers 1-6, GST-SBP tag (UNK, Homo sapiens, UniProt Q9C0B0, residues 30-357)
# Chain of UniProt Q9C0B0 (30-357, looked up): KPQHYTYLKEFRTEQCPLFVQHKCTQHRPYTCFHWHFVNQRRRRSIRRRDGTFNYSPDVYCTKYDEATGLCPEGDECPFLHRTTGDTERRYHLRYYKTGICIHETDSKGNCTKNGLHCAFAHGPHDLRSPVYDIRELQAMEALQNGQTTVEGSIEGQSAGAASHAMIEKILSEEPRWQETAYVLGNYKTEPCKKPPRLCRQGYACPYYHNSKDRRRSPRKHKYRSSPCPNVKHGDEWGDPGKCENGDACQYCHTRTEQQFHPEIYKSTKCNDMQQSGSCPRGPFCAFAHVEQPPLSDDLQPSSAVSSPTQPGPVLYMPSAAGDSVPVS
# Setting: RNA with constant flanks, human-mouse chimeric sites, ends assumed
# Shared flanks, not repeated: GGGAGUUCUACAGUCCGACGAUC … CAACAGAGGAUUGAGCAUCA
Oligonucleotide,bound/input enrichment [ratio]
CUCGGCACCGGCACGCUUUACAUCGCGGAGAGCCGCCUGUCCUGGUUAGAUGGCUCUGGAUUAGGAUUCUCACUGGAAUACCCCACCAUUAGUUUACAUGCGGUGUCCAGGGACCGAAAC,0.755
UCAACAGACAACAUCAAAUACCAGCCUAAGGGGGGUCAGGUACAAAUUGUUACCAAGAAAAUAGACCUAAGCCAUGUGACAUCCAAAUGUGGCUCUCUGAAGAACAUCCGUCACAGGCCA,0.639
AAGGUGAUGACUAUGUUUGUCCAACGACAGGUAUUUUCGGAGAGCAAAGAUGAGAUUGCGUUAGUCCUCUAUGGCACAGAUGGCACUGACAAUCCCCUUGCUGGCAAGGACCAGUAUCAG,0.168
AACAGAUUGUCUUUAAGCAUUCCAAGCAAUGCUUGGGGGGUGAUCAUUGUUGCCCAUGUGCCUUCUGACUGAGCUUUAAUGCUGUUCCAUGUUACAUUGAUGUUCUUCUCCAGAAUUGUU,0.143
GCCACCAGAUCCCAGAAACAUGACCCUUGCUGCCUACAAAGAGAAGAUGAAGGAGCUCCCACUAGUGUCUCUGUUCUGCUCCUGCUUCCUGGCCGAUCCCCUGAAUAAGUCGUCCUACAA,1.01
UGACAAGCACGAGCAUCAGCCAUGCCUUUCCUUGACAUACAGAAAAAGCUGGGCAUCAGCCUGGACCGGCACUUUAUGUUCCUAAGCGCAGAACAGCCCUAUAAGAAGGCUGGUCGAUGC,0.138
CUGGCCUGGCCCUCCCCUCUAGUGACCUUUCGUAUAGUAACUGUCAGUGCAUCAGAUACUUUCAGCUGCAACUCCCUACUGGGUGGGGCACCCAUUUCAGGCAGAAGGUUUUGGUACCCU,5.23
AUCAAAUACUUUGGGGACAUCAUUAGUGUGGGACAGAGACUGUUGCAAGGGGCCCGGAUCUUAGGGAUUCCAGUUAUCAUAACGGAACAAUACCCUAAAGGACUUGGCAGCACCGUUCAA,0.22
UGGCGCCUGCGCUCCCCACUCGUGUUUGUAUUUUUAUUUUUAUAAGAUACAUGUAUUUACAAUUGAGCUUUUGUUACAUAAUGCUGAAAUGCUACUGGAGAUUAUGAAAAAUGUUUCAAU,0.232
AAAGAGUGGAUAGAGUGUGCACACGGGAUCGGUGGGACCCGGGCGAAAAAGGAGUGCAAGAUAGAGUUCGAUGACUUCGUAGAGUGUUUGCUUCGGUAGAAAACGAUGAGGCGAAUGCAU,0.556
UUUCUACUGCAGCAAACCAUGCUACGAAUUAAGGAUCCUAAGAAGUCCCUGGAUUUUUAUACUAGAGUUCUUGGACUGACCCUCCUGCAGAAGCUUGACUUCCCUGCUAUGAAGUUCUCG,0.151

# Series 4 — technique: universal PBM; molecule type: double-stranded DNA, one strand shown; sample: in vitro; tested at: 600 nM; direction: higher = stronger binding
# Target: Sal-like protein 4, full length isoform A (SALL4, Homo sapiens, UniProt Q9UJQ4, residues 1-1053)
# Chain of UniProt Q9UJQ4 (whole entry, looked up): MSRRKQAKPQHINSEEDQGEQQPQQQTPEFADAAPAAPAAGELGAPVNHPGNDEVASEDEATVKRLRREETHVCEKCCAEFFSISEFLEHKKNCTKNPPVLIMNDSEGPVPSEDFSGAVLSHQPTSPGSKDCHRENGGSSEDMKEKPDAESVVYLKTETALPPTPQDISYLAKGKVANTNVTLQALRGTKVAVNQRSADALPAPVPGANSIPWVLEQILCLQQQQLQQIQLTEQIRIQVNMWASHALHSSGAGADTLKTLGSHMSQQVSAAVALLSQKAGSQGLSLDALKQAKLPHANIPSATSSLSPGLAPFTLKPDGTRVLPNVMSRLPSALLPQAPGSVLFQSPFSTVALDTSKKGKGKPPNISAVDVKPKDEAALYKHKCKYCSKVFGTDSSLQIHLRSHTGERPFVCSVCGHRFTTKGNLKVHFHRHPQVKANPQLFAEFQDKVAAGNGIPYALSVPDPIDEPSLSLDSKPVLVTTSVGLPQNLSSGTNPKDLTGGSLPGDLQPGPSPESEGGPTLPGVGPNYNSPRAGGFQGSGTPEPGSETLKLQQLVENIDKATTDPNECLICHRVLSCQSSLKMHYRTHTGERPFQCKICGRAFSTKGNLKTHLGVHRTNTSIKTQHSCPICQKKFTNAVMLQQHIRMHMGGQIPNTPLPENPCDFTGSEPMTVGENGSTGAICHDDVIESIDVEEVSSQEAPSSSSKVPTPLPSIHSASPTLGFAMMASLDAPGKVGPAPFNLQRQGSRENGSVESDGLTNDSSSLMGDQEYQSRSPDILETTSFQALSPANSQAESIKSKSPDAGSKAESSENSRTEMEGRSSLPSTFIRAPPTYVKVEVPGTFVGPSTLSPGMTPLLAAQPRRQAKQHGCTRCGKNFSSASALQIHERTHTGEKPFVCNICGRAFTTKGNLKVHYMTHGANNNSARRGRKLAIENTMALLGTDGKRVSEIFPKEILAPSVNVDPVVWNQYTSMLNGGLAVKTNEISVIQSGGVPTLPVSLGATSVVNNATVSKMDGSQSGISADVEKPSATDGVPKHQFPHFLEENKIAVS
# Setting: 8-mer, flanks averaged, mean of replicates
Oligonucleotide,E-score
CTTCTCGC,-0.0387
CTCTGCGA,-0.116
ACCACCCG,-0.339
TCGGCAAA,-0.173
ATCCCTGG,-0.215
ACGCACCG,-0.285
CAGTAGCC,-0.189
CGGCCAGC,-0.277
TAACACTA,0.325
AATCGCCT,-0.0825
AGTTGAAA,0.17
CGCCAGAA,-0.151
CATTGGAG,-0.0235
TAAATAGA,0.107
CGGTATAA,0.189
CGAGCGCC,-0.423
AAAGCCCA,-0.113
CCCCCTGA,-0.372
CTGATCGA,-0.14
AATAAATG,0.349
ATAGCACC,0.128
CTTGTTTA,0.0968
ATTGTCTC,0.0337
ACTGCAAA,0.167
ACTGCGCC,-0.367

# Series 5 — technique: protein binding microarray; molecule type: double-stranded DNA, one strand shown; sample: in vitro; tested at: not given; baseline: not given; direction: higher = stronger binding
# Target: Histone acetyltransferase KAT6A, winged helix 2, GST fusion (KAT6A, Homo sapiens, UniProt Q92794, residues 85-181)
# Setting: 8-mer, flanks averaged, mean of 2 arrays, mostly near background
# Target sequence (chain): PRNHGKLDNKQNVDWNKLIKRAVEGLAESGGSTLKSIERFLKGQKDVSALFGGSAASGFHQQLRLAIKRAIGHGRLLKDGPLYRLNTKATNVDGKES
Oligonucleotide,E-score
AGAGTAGA,0.0696
GAGCATCA,-0.0907
GTGTCCAA,0.135
AGATAGTC,-0.198
AGTTGCTC,0.0694
ACTTAAAG,-0.25
ATGACTCC,-0.088
TATCGCAA,0.0833
ACTGTAAG,-0.0137
ATATTTAC,0.219
CGAATTAG,0.112
AAGGGTGT,0.0337
AATAGAGG,-0.0788
CTAGTACA,-0.123
AACCAATC,0.0261
ACGTATCT,-0.194
CACCTGAG,-0.0216
TTAGTGAA,0.00464
TCAACAAA,0.0166
GCGAACCC,0.197
GAGTACGC,-0.0216
AATTAGAA,-0.135
GGGAGGTA,-0.0717
CATGCGCC,0.108
CTTTTTGC,0.193

# For quick reference, copied from above (series 4):
Oligonucleotide,E-score
ATCCCTGG,-0.215
CCCCCTGA,-0.372
AATAAATG,0.349
TAACACTA,0.325
CAGTAGCC,-0.189
ACCACCCG,-0.339
AATCGCCT,-0.0825
TAAATAGA,0.107
ACTGCAAA,0.167
CGAGCGCC,-0.423
CTTGTTTA,0.0968
ATTGTCTC,0.0337
CTCTGCGA,-0.116
AGTTGAAA,0.17
ATAGCACC,0.128
CATTGGAG,-0.0235
